{"data": "Published values pooled from the literature", "organism": "Trypanosoma cruzi", "note": "Lines come from different studies, so protocols differ. Numbers after ± are the reported error."}
{"Structure (SMILES)": "CCOC(=O)c1csc(NN=Cc2cccc(OC)c2)n1", "test": "parasite growth", "conditions": "24 h, trypomastigote", "measurement": "EC50", "result": "12.9 µM"}
{"Structure (SMILES)": "Cc1cc(C2CCCCC2)n(O)c(=O)c1", "test": "PrestoBlue", "system": "trypomastigote", "conditions": "48 h, DMSO stock retest", "measurement": "IC50", "result": "0.9 ± 0.22 µM"}
{"Structure (SMILES)": "c1ccc2c(NCCCn3ccnc3)ncnc2c1", "test": "amastigote replication", "system": "Vero", "conditions": "IC25, 240 h", "measurement": "inhibition", "result": "40%"}
{"Structure (SMILES)": "COc1ccc(C[C@H](N)C(=O)N[C@H]2[C@@H](O)[C@H](n3cnc4c(N(C)C)ncnc43)O[C@@H]2CO)cc1", "test": "PrestoBlue", "system": "trypomastigote", "conditions": "48 h, DMSO stock retest", "measurement": "IC50", "result": "0.62 ± 0.09 µM"}
{"Structure (SMILES)": "O=C(N[C@H](Cc1c[nH]c2ccccc12)C(=O)Nc1ccncc1)c1ccc(-c2ccc(F)c(F)c2)cc1F", "system": "Y luc, mouse", "conditions": "oral, 50 mg/kg twice daily, 4 days, vehicle 20% Solutol", "measurement": "parasite inhibition", "result": "> 70%"}
{"Structure (SMILES)": "CN(C)C(=N)N=C(N)N", "test": "parasite growth", "system": "Vero", "conditions": "20 mM, 72 h, intracellular, amastigote", "measurement": "inhibition", "result": "51.7%"}
{"Structure (SMILES)": "O=[N+]([O-])c1nccn1CCCN(Cc1cccc(C(F)(F)F)c1)Cc1cccc(C(F)(F)F)c1", "test": "growth", "system": "L6 myoblasts, Tulahuen C4", "conditions": "intracellular amastigotes", "measurement": "IC50", "result": "4 to 60 µM"}
{"Structure (SMILES)": "O=C(N[C@H](Cc1c[nH]c2ccccc12)C(=O)Nc1ccncc1)c1ccc(-c2cccc(C(F)(F)F)c2)cc1F", "system": "Y luc, mouse", "conditions": "oral, 50 mg/kg twice daily, 4 days, vehicle 20% Solutol", "measurement": "parasite inhibition", "result": "> 90%"}
{"Structure (SMILES)": "N#CSCCOc1ccc(Oc2cccnc2)cc1", "test": "tdTomato fluorescence", "system": "Vero cells, CL strain, tdTomato", "conditions": "72 h, intracellular amastigotes", "measurement": "ED50", "result": "7.4 ± 0.45 µM"}
{"Structure (SMILES)": "O=C(Cn1ccnc1[N+](=O)[O-])NCc1ccccc1", "test": "viability, resazurin", "system": "trypomastigotes, Y", "conditions": "24 h, RPMI medium, together with: 30 µM heme", "measurement": "IC50", "result": "12 ± 6.5 µM"}
